# Results gathered from unrelated publications.
# Numbered parts are unrelated; each lists some results of a single study. Substitutions count along the parent as printed.

# Set 1 — target: CCND2, cyclin fold, Cln2 fusion (human); technique: yeast growth competition, sequencing; matrix: yeast; notes: weak parent motif; baseline: not given; direction: higher = stronger binding
# Parent: CDKN1A docking peptide (human); SKACRRLFGPVDS
Variant,normalised enrichment score
SKACRRLFPPVDS [G9P],0.86
SKACRRLFGVVDS [P10V],-0.0503
SKACRRLFGGVDS [P10G],0.534
SKACHRLFGPVDS [R5H],0.0325
SKACRRLFQPVDS [G9Q],0.534
SKWCRRLFGPVDS [A3W],-0.282
SIACRRLFGPVDS [K2I],0.221
SRACRRLFGPVDS [K2R],0.269
SKACRRLWGPVDS [F8W],0.135
SNACRRLFGPVDS [K2N],0.55
SKACRRLFGTVDS [P10T],0.332
SKACRRLPGPVDS [F8P],0.0627
SKACRRLFWPVDS [G9W],0.261
SKACRYLFGPVDS [R6Y],0.224
SQACRRLFGPVDS [K2Q],0.416
SKACRRKFGPVDS [L7K],0.145

# Set 2 — Sequence: B1 (RNF5 RING domain); technique: yeast two-hybrid; matrix: yeast; notes: mostly zero background; baseline: not given; direction: higher = stronger interaction
# B1: RNF5 RING domain (UniProt Q99942); chain ERGGAGATFECNICLETAREAVVSVCGHLYCWPCLHQWLETRPERQECPVCKAGISREKVVP
target,lacZ reporter activity
UBE2L3 UBC core domain (UniProt P68036),0
UBE2B UBC core domain (UniProt P63146),0
UBE2R2 UBC core domain (UniProt Q712K3),0
UBE2D2 UBC core domain (UniProt P62837),0
UBE2J2 UBC core domain (UniProt Q8N2K1),0
UBE2I UBC core domain (UniProt P63279),0
UBE2S UBC core domain (UniProt Q16763),0
UBE2C UBC core domain (UniProt O00762),0
UBE2D4 UBC core domain (UniProt Q9Y2X8),0
UBE2J1 UBC core domain (UniProt Q9Y385),0

# Set 3 — technique: protein-binding microarray; form: double-stranded DNA, one strand shown; matrix: in vitro; tested at: 2540 nM top; notes: 60-bp whole probe; with: salmon DNA 0.4 mg/ml; baseline: random background probes; direction: higher = stronger binding; all sequences stand within: GCCTAGCAC … GTCTTGATTCGCTTGACGCTGCTG
# Target: Interferon regulatory factor 3, full length, phosphomimetic (IRF3, Homo sapiens, UniProt Q14653, residues 1-427, S386D/S396D/S398D/S402D/T404D/S405D)
Sequence,fitted relative affinity
GACGGTATCGGGACCGGGGACGTGCTA,1.49 z-score
TCATAACTCATTCTCTGACTGTGCTAG,1.38 z-score
TTAGCTCTCAGACTGGATTAGTGCTAG,-0.214 z-score
TCATTTTTGTAATCGAAAACTGTGCTA,1.82 z-score
GACGGTTTCGACTTGCGGGACGTGCTA,3.52 z-score
ACCATTTTGGTTTTCTCTATGTGCTAG,3.05 z-score
CCTTTTTTTTTTTTTCTGATGTGCTAG,2.75 z-score
CTAGATATCAGTTTCGATTAGTGCTAG,4.97 z-score
TCAACTTTAGGTTCCCAACTGTGCTAG,2.15 z-score
TCATTTTTCTGCTTAGAACTGTGCTAG,1.76 z-score
TCAATTGTGGCTTTTTAACTGTGCTAG,0.22 z-score
TTAGAACTGGGGACTGGACTAGTGCTA,-0.93 z-score
GACGAACTGACTTTCGAGACGTGCTAG,0.471 z-score

# Set 4 — technique: protein binding microarray; form: double-stranded DNA, one strand shown; matrix: in vitro; tested at: not given; baseline: not given; direction: higher = stronger binding
# Target: Histone acetyltransferase KAT6A, winged helix 2, GST fusion (KAT6A, Homo sapiens, UniProt Q92794, residues 85-181)
# Notes: 8-mer, flanks averaged, mean of 2 arrays, mostly near background
# Target sequence (chain): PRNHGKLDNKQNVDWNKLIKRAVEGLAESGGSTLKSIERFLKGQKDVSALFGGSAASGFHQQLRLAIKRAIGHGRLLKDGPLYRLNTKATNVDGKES
Sequence,E-score
AGAGTAAG,0.0344
GGGTCTGA,-0.063
GAAACTTC,0.0445
AAGATAAA,0.0177
GCTGCGCC,0.194
AGAAAGAA,0.0616
CCGTATCC,0.0875
CATTAAAC,-0.102
ACGCGAAC,-0.076
CGAATCCA,-0.016
CCCTTAGC,-0.0143
ATCTCCAG,0.0501
AGGTGTAG,-0.191
GGCATAAA,-0.0357
AACACAAA,-0.0306
CCGGGCCA,0.121

# Set 5 — technique: DHFR PCA, dose-response; matrix: yeast; with: (+)-ABA, dose series; direction: lower = more sensitive
# Target: ABI1, truncated, D143A, DHFR fusion (Arabidopsis thaliana, UniProt P49597)
# Notes: Hill fit, not affinity, not high confidence
# Parent: PYL1, truncated, DHFR fusion (Arabidopsis thaliana, UniProt Q8VZS8); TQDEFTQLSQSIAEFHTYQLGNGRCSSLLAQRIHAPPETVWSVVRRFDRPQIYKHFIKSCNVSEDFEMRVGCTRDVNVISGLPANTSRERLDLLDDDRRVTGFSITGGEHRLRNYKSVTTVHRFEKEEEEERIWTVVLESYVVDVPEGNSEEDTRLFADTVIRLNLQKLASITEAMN
Variant,ABA EC50
L166R,0.113 µM
H16W,850 µM
T135F,16.1 µM
N149E,226 µM
H16T,739 µM
F103D,14 µM
Q2W,19.8 µM
V142P,1.46 µM
V143N,14.1 µM
V44D,3.56 µM
V118G,987 µM
V137W,251 µM
L82D,1.41 µM
S87D,1100 µM
